Experimental data from different studies.
Lines come from different studies, so protocols differ. Numbers after ± are the reported error.

| Compound | assay | system | setting | tracer uptake |
| --- | --- | --- | --- | --- |
| Cc1nc(N)nc2c1C(=O)N[C@@H](c1ccc(F)cc1-c1cccc(O[11CH3])n1)C2 | ex vivo biodistribution | mice, MDA-MB-231 subcutaneous xenograft, heart | 60 min post-injection, baseline, vehicle pre-treatment | 0.7 ± 0.03 %ID |
| CN(O)C(=O)CCC(=O)NCCCN(CCCCN(CCCNC(=O)CCC(=O)N(C)O)C(=O)CCC(=O)N(C)O)C(=O)CCC(=O)N(C)O.[89Zr] | – | mouse, brain | 1 h | 0.09 %ID/g |
| CN(Cc1ccccc1)C(=O)CN1CCN(CC(=O)[O-])CCN(CC(=O)N(C)Cc2ccccc2)CC1.[18F-].[Sc+3] | – | mouse, heart | intravenous, 1 h | 0.12 %ID/g |
| CN([O-])C(=O)CN1CCN(CC(=O)N(C)[O-])CCN(Cc2ccccn2)CC1.[89Zr+4] | – | mouse, kidney | intravenous, 24 h | 1.29 %ID/g |
| CN(Cc1ccccc1)C(=O)CN1CCN(CC(=O)N(C)Cc2ccccc2)CCN(Cc2cccc(C(=O)[O-])n2)CC1.[44Sc+3] | – | mouse, muscle | intravenous, 1 h | 0.28 %ID/g |
| CC(C(=O)O)n1nc(Cn2cc3cc(OCC[18F])c(Cl)cc3n2)c2ccccc2c1=O (racemic) | – | rat, blood | 5 min | 0.47 %ID/g |
| CN([O-])C(=O)CN1CCNCCN(CC(=O)N(C)[O-])CC1.[89Zr+4] | – | mouse, blood | intravenous, 4 h | 0.26 %ID/g |
| O=C([O-])CN1CCN(CC(=O)[O-])CCN(Cc2cccc(C(=O)[O-])n2)CC1.[44Sc+3] | – | mouse, kidney | intravenous, 1 h | 3.48 %ID/g |
| COc1ccc2c(c1)C(C)(C)C(/C=C/C1=C(Oc3ccc(C(=O)NCCCCOc4cc(CN(Cc5ccccn5)Cc5ccccn5)cc(CN(Cc5ccccn5)Cc5ccccn5)c4)cc3)C(=C/C=C3/N(CCCCS(=O)(=O)[O-])c4ccc(OC)cc4C3(C)C)CCC1)=[N+]2CCCCS(=O)(=O)[O-].O=[N+]([O-])[O-].O=[N+]([O-])[O-].[99Tc+].[C-]#[O+].[C-]#[O+].[C-]#[O+].[Zn+2] | – | mouse, bone | 12 h | 0.78 %ID/g |
| [123I]c1ccc2nc(-c3ccc(-n4ccnn4)nc3)cn2c1 | – | male Wistar rat, heart | intravenous, 4 MBq, 6 h | 0.049 %ID/g |
| CN(Cc1ccccc1)C(=O)CN1CCN(CC(=O)[O-])CCN(Cc2cccc(C(=O)[O-])n2)CC1.[44Sc+3] | – | mouse, lung | intravenous, 1 h | 0.88 %ID/g |
| CC(=O)N([O-])CCCCCNC(=O)CCC(=O)N([O-])CCCCCNC(=O)CCC(=O)N([O-])CCCCCN.[89Zr+4] | – | mouse, pancreas | 1 h | 0.17 %ID/g |

Some of these lines once more:
| Compound | assay | system | setting | tracer uptake |
| --- | --- | --- | --- | --- |
| Cc1nc(N)nc2c1C(=O)N[C@@H](c1ccc(F)cc1-c1cccc(O[11CH3])n1)C2 | ex vivo biodistribution | mice, MDA-MB-231 subcutaneous xenograft, heart | 60 min post-injection, baseline, vehicle pre-treatment | 0.7 ± 0.03 %ID |
